Experimental data gathered from unrelated publications.
Compare with care: the assays were run in different laboratories. ± gives the spread as reported.

Structure (SMILES) = CCCCCCCCCCCCCC(=O)N1CCN(C(=O)C2CCNCC2)CCN(C(=O)C2CCNCC2)CC1; assay = dynamic light scattering; system = deionized water; setting = 128 µg/mL, 25 °C, intensity average; measurement = hydrodynamic diameter; value = 218 nm
Structure (SMILES) = CC(CCC(=O)NCC(=O)O)C1CCC2C3CCC4CC(OC5OC(C(=O)O)C(O)C(O)C5O)CCC4(C)C3CC(O)C12C (stereo not shown); assay = measured: glucuronide to parent ratio; system = women, plasma; setting = dose not given; how to read = relative to: C/C over T/T; measurement = ratio of metabolic ratios; value = 7.29
Structure (SMILES) = CCN(CCCCOc1ccc(CCC(=O)N2CCC(Cc3ccccc3)CC2)cc1OC)Cc1ccccc1; system = Sprague-Dawley rats, both sexes, faeces; setting = oral gavage, 25 mg/kg, 0 to 6 h; how to read = relative to: dose; measurement = excretion rate; value = 0.0011 ± 0.0006%
Structure (SMILES) = CC(=O)N[C@@H](CCCNC(=N)N)C(=O)N[C@@H](Cc1c[nH]c2ccccc12)C(=O)N[C@H](C(=O)N[C@@H](Cc1c[nH]c2ccccc12)C(=O)N[C@@H](CCCNC(=N)N)C(=O)NCC(=O)N[C@@H](CO)C(=O)NCC(=O)N[C@@H](CCCNC(=N)N)C(=O)N[C@@H](Cc1c[nH]c2ccccc12)C(=O)N[C@H](C(=O)N[C@@H](Cc1c[nH]c2ccccc12)C(=O)N[C@@H](CCCNC(=N)N)C(N)=O)[C@@H](C)O)[C@@H](C)O; assay = circular dichroism; system = phosphate buffer; setting = 30 µM, pH 6.5; measurement = melting temperature; value = 78.9 °C
Structure (SMILES) = O=C1NC2(CC2)COc2ncc(F)cc2[C@H]2COCCN2c2ccn3ncc1c3n2; system = Sprague-Dawley rat, female, blood; setting = oral, 10 mg/kg/day, 4 weeks, end of recovery, subacute toxicity; measurement = monocyte percentage; value = 1.9 ± 0.7%
Structure (SMILES) = C[C@H](NCc1ccc(-c2ccc(C(F)(F)F)cc2)cc1)C(N)=O; assay = general toxicity; system = Sprague-Dawley rat; setting = oral, single dose; measurement = NOAEL; value = > 1000 mg/kg
Structure (SMILES) = COc1ccc(CNc2ccc3c(c2)S(=O)(=O)C=C3)cc1; system = male C57BL/6 mice, blood; setting = intraperitoneal, 5 mg/kg, day 8, group average; measurement = platelet distribution width; value = 14.5%
Structure (SMILES) = CCCCCCCCCCCCCC(=O)N[C@@H](Cc1ccccc1)C(=O)N[C@@H](Cc1ccccc1)C(=O)N[C@@H](Cc1ccccc1)C(=O)N[C@@H](Cc1ccc(O)cc1)C(=O)NCC(=O)N[C@@H](CCCNC(=N)N)C(=O)N[C@@H](CCCCN)C(=O)N[C@@H](CCCCN)C(=O)N[C@@H](CCCNC(=N)N)C(=O)N[C@@H](CCCNC(=N)N)C(=O)N[C@@H](CCC(N)=O)C(=O)N[C@@H](CCCNC(=N)N)C(=O)N[C@@H](CCCNC(=N)N)C(=O)N[C@@H](CCCNC(=N)N)C(=O)O; assay = ANS fluorescence; system = 10 mM PBS; setting = pH 7.4, added: ANS 10 µM; measurement = critical aggregation concentration; value = ~12.5 µM
Structure (SMILES) = Cc1ccc(OCC(=O)N(Cc2cccs2)c2ccn[nH]2)cc1; assay = micronucleus; system = CD-1 mouse Crl:CD-1(ICR), female, bone marrow; setting = oral, 1000 mg/kg/day, 3 days; measurement = PCE to total erythrocyte ratio; value = 0.64 ± 0.08
Structure (SMILES) = CCc1nn(C)c2nc(-c3ccc(C(=O)O)cc3)nc(NCc3ccccc3)c12; system = male CD-1 mouse, plasma; setting = intravenous, 1 mg/kg, 30 min; measurement = concentration; value = 336 ng/mL
Structure (SMILES) = CC(C)[C@@H]1NC(=O)CNC(=O)[C@H](CC(N)=O)NC(=O)[C@H](CCCNC(=N)N)NC(=O)[C@H](Cc2ccc(O)cc2)NC(=O)[C@H](C(C)C)NC(=O)[C@@H](NC(=O)[C@@H](NC(=O)[C@H](CC(N)=O)NC(=O)[C@H](Cc2c[nH]c3ccccc23)NC(=O)[C@H](C)NC(=O)[C@H](Cc2ccccc2)NC(=O)CNC(=O)[C@H](CCCCN)NC(=O)[C@H](Cc2ccccc2)NC(=O)[C@H](Cc2ccccc2)NC(=O)[C@H](CCCCN)NC(=O)OCC2c3ccccc3-c3ccccc32)C(C)C)CSSC[C@@H](C(=O)N[C@@H](Cc2c[nH]cn2)C(=O)N[C@@H](CCCNC(=N)N)C(=O)N[C@@H](CCCNC(=N)N)C(=O)N[C@@H](C)C(=O)N[C@@H](CC(N)=O)C(N)=O)NC(=O)[C@H](C(C)C)NC(=O)[C@H](CCCNC(=N)N)NC1=O; system = ICR mouse, blood; setting = intramammary, 10 mg/kg, day 5, 3 d dosing; measurement = eosinophils; value = 2.49 ± 0.26%
Structure (SMILES) = C=Cc1c(C)c2cc3nc(c(CC(=O)[O-])c4[n-]c(cc5nc(cc1[n-]2)C(C)=C5CC)c(C)c4C(=O)[O-])C(CCC(=O)[O-])C3C.[Cu+2].[Na+].[Na+].[Na+] (stereo not shown); system = Wistar rat, male; setting = oral, 250 mg/kg daily, 28 days; measurement = serum creatinine; value = 0.37 ± 0.05 mg/dL
Structure (SMILES) = CC(C(=O)O)n1nc(Cn2cc3cc(OCC[18F])c(Cl)cc3n2)c2ccccc2c1=O (racemic); assay = HPLC; system = nonhuman primate, plasma; setting = 5 min post-injection; how to read = relative to: plasma radioactivity; measurement = hydrophilic radiometabolite; value = 0%
Structure (SMILES) = CC(C)C[C@H](NC(=O)[C@H](Cc1ccccc1)NC(=O)CNC(=O)CNC(=O)[C@@H](N)Cc1ccc(O)cc1)C(=O)N[C@@H](CSCB(O)O)C(N)=O; assay = RP-HPLC; system = PBS; setting = concentration not given, 24 h, pH 7.4, added: H2O2 100 µM; measurement = peptide remaining intact; value = 68%
Structure (SMILES) = CC[C@H](C)[C@H](NC(=O)[C@H](Cc1ccc(O)cc1)NC(=O)[C@H](C)NC(=O)[C@H](CC(=O)O)NC(=O)[C@H](CC(C)C)NC(=O)[C@H](C)NC(=O)[C@H](C)NC(=O)[C@H](CCCCN)NC(=O)CNC(=O)[C@@H](NC(=O)[C@H](Cc1c[nH]cn1)NC(=O)[C@H](CCCCN)NC(=O)CNC(=O)[C@@H](NC(=O)[C@H](Cc1c[nH]cn1)NC(=O)[C@@H](NC(=O)[C@H](C)NC(=O)[C@H](CCCCN)NC(=O)[C@H](CCCCN)NC(=O)[C@@H](NC(=O)[C@H](Cc1c[nH]c2ccccc12)NC(=O)[C@H](CCCCN)NC(=O)[C@H](CCCNC(=N)N)NC(=O)[C@H](Cc1c[nH]c2ccccc12)NC(=O)CN)[C@@H](C)CC)[C@@H](C)O)C(C)C)[C@@H](C)CC)C(N)=O; system = zebrafish embryos 4 hpf, E3 medium; setting = 1 h; measurement = acute toxic concentration; value = 5 µM
Structure (SMILES) = CSCC[C@H](NC(=O)CNC(=O)[C@H](CCCCN)NC(=O)[C@H](CC(C)C)NC(=O)[C@@H]1CCCN1C(=O)[C@H](CO)NC(=O)[C@H](Cc1c[nH]cn1)NC(=O)[C@H](Cc1c[nH]c2ccccc12)NC(=O)[C@H](CCCNC(=N)N)NC(=O)[C@H](CC(C)C)NC(=O)[C@H](CCCNC(=N)N)NC(=O)[C@H](Cc1c[nH]c2ccccc12)NC(=O)[C@H](CS)NC(=O)CCCCCNC(=O)CN1CCN(CC(=O)O)CCN(CC(=O)O)CCN(CC(=O)O)CC1)C(=O)O [copper-64 labelled]; assay = PET imaging; system = C57BL/6J mice bearing B16-F10 tumours, tumour; setting = intravenous, 38 h; measurement = tissue uptake; value = 1.75 ± 0.06 %ID/g
Structure (SMILES) = C[C@@H]1COCCN1c1nc(NCc2cccnc2C(F)(F)F)c2cccnc2n1; assay = metabolic stability; system = monkey, hepatocytes; measurement = hepatocyte CLint; value = 6.9 µL/min/10⁶ cells
Structure (SMILES) = O=C(c1cc(Cc2n[nH]c(=O)c3ccccc23)ccc1F)N1CC(CNC2CC2)C1; system = Wistar Han rat, male, blood; setting = oral, 30 mg/kg daily, 4 weeks; measurement = haematocrit; value = 49.6 ± 3.7%
Structure (SMILES) = CC[C@H](C)[C@H](NC(=O)[C@H](CCCCN)NC(=O)CNC(=O)[C@H](CC(C)C)NC(=O)[C@H](Cc1ccccc1)NC(=O)[C@H](CCCCN)NC(=O)[C@H](CO)NC(=O)[C@H](Cc1ccccc1)NC(=O)[C@H](Cc1c[nH]c2ccccc12)NC(=O)[C@H](CCC(N)=O)NC(=O)[C@@H](NC(=O)[C@H](Cc1ccccc1)NC(=O)CCCCCNC(=O)CN1CCN(CC(=O)O)CCN(CC(=O)O)CCN(CC(=O)O)CC1)C(C)C)C(=O)N[C@@H](CCC(=O)O)C(=O)N1CCC[C@H]1C(=O)N[C@@H](CC(=O)O)C(=O)N[C@H](C(=O)N[C@@H](CO)C(=O)N[C@@H](CCC(N)=O)C(=O)N[C@H](C(=O)N[C@@H](CCC(N)=O)C(=O)N[C@@H](CC(=O)O)C(=O)N1CCC[C@H]1C(=O)N[C@@H](CC(N)=O)C(=O)N[C@@H](CC(=O)O)C(=O)N[C@@H](CCC(N)=O)C(=O)N[C@@H](Cc1ccc(O)cc1)C(=O)N[C@@H](CCC(=O)O)C(=O)N1CCC[C@H]1C(=O)N[C@@H](Cc1ccccc1)C(=O)O)C(C)C)C(C)C [copper-64 labelled]; system = C57BL/6 mice, small intestine; setting = added: LPS 0.1 mg/kg intratracheal; measurement = tissue uptake; value = 4.37 ± 0.6 %ID/g

For quick reference, copied from above:
Structure (SMILES) = CC(C(=O)O)n1nc(Cn2cc3cc(OCC[18F])c(Cl)cc3n2)c2ccccc2c1=O (racemic); assay = HPLC; system = nonhuman primate, plasma; setting = 5 min post-injection; how to read = relative to: plasma radioactivity; measurement = hydrophilic radiometabolite; value = 0%
